Measured values of several laboratories.
Parts stem from different laboratories: compare values within a part only. ± gives the spread as reported.
Sequence of UniProt P07947 (whole entry, looked up): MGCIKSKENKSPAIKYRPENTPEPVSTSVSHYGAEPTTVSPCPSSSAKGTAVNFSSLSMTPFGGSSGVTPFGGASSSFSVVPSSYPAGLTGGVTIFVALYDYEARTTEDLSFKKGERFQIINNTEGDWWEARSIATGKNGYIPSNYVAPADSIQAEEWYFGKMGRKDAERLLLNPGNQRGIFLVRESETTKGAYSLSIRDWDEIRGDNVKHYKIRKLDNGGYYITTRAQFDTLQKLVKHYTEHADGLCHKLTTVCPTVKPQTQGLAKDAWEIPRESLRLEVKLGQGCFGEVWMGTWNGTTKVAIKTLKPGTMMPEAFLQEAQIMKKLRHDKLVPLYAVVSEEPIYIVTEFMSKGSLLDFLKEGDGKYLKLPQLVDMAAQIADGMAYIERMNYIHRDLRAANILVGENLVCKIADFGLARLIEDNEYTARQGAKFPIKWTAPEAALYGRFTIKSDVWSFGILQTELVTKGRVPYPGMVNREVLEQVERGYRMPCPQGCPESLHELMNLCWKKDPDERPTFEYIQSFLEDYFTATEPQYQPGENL

Study 1
Organism: Saccharomyces cerevisiae
Method: broth microdilution
Strain: ATCC 9763
| Structure (SMILES) | MFC/MIC ratio |
| --- | --- |
| Cc1ccc(N=Nc2c(N)nn3c(-c4ccc(C)cc4)cc(-c4ccc(OCc5ccccc5)cc4)nc23)cc1 | 4 |
| Cc1ccc(N=Nc2c(N)nn3c(-c4ccc(Cl)cc4Cl)cc(-c4ccc(OCc5ccccc5)cc4)nc23)cc1 | 3.9 |
| COc1ccc(N=Nc2c(N)nn3c(-c4ccco4)cc(-c4ccc(OCc5ccccc5)cc4)nc23)cc1 | 2 |
| COc1ccc(N=Nc2c(N)nn3c(-c4ccc(Cl)cc4Cl)cc(-c4ccc(OCc5ccccc5)cc4)nc23)cc1 | 4 |
| Nc1nn2c(-c3ccc(Cl)cc3Cl)cc(-c3ccc(OCc4ccccc4)cc3)nc2c1N=Nc1ccc(F)cc1 | 4 |

Study 2
Target: mushroom tyrosinase
Read-out: enzyme activity
Concentration: 40 µM
Together with: L-DOPA
| Structure (SMILES) | inhibition [%] |
| --- | --- |
| COc1cc(-c2nc3ccccc3c(=O)n2Nc2ccc([N+](=O)[O-])cc2[N+](=O)[O-])ccc1OCc1cn(CC(=O)Nc2ccccc2)nn1 | 26.1 ± 5.03 |
| COc1cc(-c2nc3ccccc3c(=O)n2Nc2ccc([N+](=O)[O-])cc2[N+](=O)[O-])ccc1OCc1cn(CC(=O)Nc2ccc([N+](=O)[O-])cc2)nn1 | 41.8 ± 0.79 |
| COc1cc(-c2nc3ccccc3c(=O)n2Nc2ccc([N+](=O)[O-])cc2[N+](=O)[O-])ccc1OCc1cn(CC(=O)Nc2ccc(Cl)cc2)nn1 | 28.9 ± 2.29 |

Further values, each from its own experiment
| Compound | tested on | test | test system | setting | measurement | result |
| --- | --- | --- | --- | --- | --- | --- |
| O=C(Nc1cc(-c2ccc(Cl)cc2)[nH]n1)C1CCCCC1 | Tyrosine-protein kinase Yes (YES1, Homo sapiens, UniProt P07947) | enzyme activity, Dundee kinase panel | – | 10 µM | remaining activity | 89% |
| CCOc1c([C@H](C)n2nc(C)c3c(N)ncnc32)cc(Cl)c(F)c1[C@@H]1CNC(=O)C1 | – | – | patients with B-cell malignancies, plasma | oral, 20 mg, day 15, monotherapy | half-life | 9.3 ± 3 h |
